Results of several laboratories.
± marks the error that the study gave.
Sequence of UniProt P04629 (whole entry, looked up): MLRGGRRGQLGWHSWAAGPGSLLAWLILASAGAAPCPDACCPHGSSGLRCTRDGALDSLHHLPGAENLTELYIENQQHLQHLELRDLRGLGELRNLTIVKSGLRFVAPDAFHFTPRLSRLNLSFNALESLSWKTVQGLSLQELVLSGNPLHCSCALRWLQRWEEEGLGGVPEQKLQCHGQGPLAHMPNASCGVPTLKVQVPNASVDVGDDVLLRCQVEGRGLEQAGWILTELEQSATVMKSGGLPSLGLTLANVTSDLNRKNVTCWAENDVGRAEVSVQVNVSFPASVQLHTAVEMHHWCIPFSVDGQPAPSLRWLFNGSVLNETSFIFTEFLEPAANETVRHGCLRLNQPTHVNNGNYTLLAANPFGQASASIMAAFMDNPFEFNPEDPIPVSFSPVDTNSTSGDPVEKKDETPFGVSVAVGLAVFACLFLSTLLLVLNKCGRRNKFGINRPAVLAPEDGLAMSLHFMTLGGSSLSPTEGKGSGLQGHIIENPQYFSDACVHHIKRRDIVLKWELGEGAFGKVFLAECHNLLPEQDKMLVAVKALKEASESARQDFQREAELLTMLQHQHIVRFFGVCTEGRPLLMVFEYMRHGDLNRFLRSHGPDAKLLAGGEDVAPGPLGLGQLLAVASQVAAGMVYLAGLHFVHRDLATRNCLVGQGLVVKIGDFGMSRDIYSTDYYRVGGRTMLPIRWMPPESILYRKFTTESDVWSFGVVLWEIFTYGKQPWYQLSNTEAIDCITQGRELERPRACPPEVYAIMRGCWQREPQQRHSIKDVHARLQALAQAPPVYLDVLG

| SMILES | tested on | test | setting | how to read | endpoint | value |
| --- | --- | --- | --- | --- | --- | --- |
| N=C(N)NCCC[C@H](NC(=O)[C@H](CCCNC(=N)N)NC(=O)[C@H](CCCNC(=N)N)NC(=O)[C@H](CCC(N)=O)NC(=O)[C@H](CCCNC(=N)N)NC(=O)[C@H](CCCNC(=N)N)NC(=O)[C@H](CCCCN)NC(=O)[C@H](CCCCN)NC(=O)[C@H](CCCNC(=N)N)NC(=O)CNC(=O)[C@@H](N)Cc1ccc(O)cc1)C(=O)O | DF-1 | – | 25 µM, 24 h | baseline: untreated cells | viability | 106.1 ± 0.2% |
| Cc1ccc(/C=C2/CNCC3=C2N=C2SC=C(c4ccc5ccccc5c4)N2C3c2ccc(C)cc2)cc1 (stereo not shown) | SH-SY5Y | MTT | 0.2 to 40 µM, 24 h | – | viability | not toxic |
| N=C(N)NCCC[C@H](NC(=O)[C@H](CCCNC(=N)N)NC(=O)[C@H](CCCCN)NC(=O)[C@H](CCCNC(=N)N)NC(=O)[C@H](Cc1ccccc1)NC(=O)[C@H](Cc1ccc(O)cc1)NC(=O)[C@H](CCCNC(=N)N)NC(=O)[C@H](CCCNC(=N)N)NC(=O)[C@H](CCCNC(=N)N)NC(=O)[C@H](CCCNC(=N)N)NC(=O)[C@H](CCCNC(=N)N)NC(=O)[C@H](Cc1ccc(O)cc1)NC(=O)[C@H](CCCNC(=N)N)NC(=O)[C@@H](N)CCCNC(=N)N)C(=O)O | DF-1 | LDH release | 1 µM, 1 h | – | viability | 99 ± 3.04% |
| Cc1ccc(C2=CSC3=NC4=C(CNC/C4=C/c4ccc(Br)cc4)C(c4ccc(Br)cc4)N23)cc1 (stereo not shown) | SH-SY5Y | MTT | 0.2 to 40 µM, 24 h | – | viability | not toxic |
| C[C@H](NC(=O)[C@H](Cc1ccc(O)cc1)NC(=O)[C@H](CCCNC(=N)N)NC(=O)[C@H](CCCNC(=N)N)NC(=O)[C@H](CCCNC(=N)N)NC(=O)[C@@H](N)CCCNC(=N)N)C(=O)N[C@@H](CCCNC(=N)N)C(=O)N1CCC[C@H]1C(=O)N[C@@H](Cc1ccc(O)cc1)C(=O)N[C@@H](Cc1ccc(O)cc1)C(=O)N[C@@H](CCCNC(=N)N)C(=O)N[C@@H](CCCNC(=N)N)C(=O)N[C@@H](CCCNC(=N)N)C(=O)O | DF-1 | – | 5 µM, 48 h | baseline: untreated cells | viability | 100.7 ± 0.51% |
| O=[N+]([O-])c1ccc(-c2nn(-c3ccccc3)c3sc(NC(c4ccccc4O)P(=O)(Oc4ccccc4)Oc4ccccc4)nc23)cc1 (stereo not shown) | Vero cells | SRB | 1 µM, 10% fetal bovine serum | – | viability | 96.8% |
| O=C1/C(=C/c2ccc(Br)cc2)CN(Cc2ccc3ccccc3c2)C/C1=C\c1ccc(Br)cc1 | SH-SY5Y | MTT | 0.2 to 40 µM, 24 h | – | viability | not toxic |
| C[C@H]1CN(c2n[nH]c3nc(N[C@H]4CC[C@H](NS(=O)(=O)CCC(F)(F)F)CC4)ncc23)CCO1 | High affinity nerve growth factor receptor (NTRK1, Homo sapiens, UniProt P04629) | biochemical | – | – | IC50 | ≥ 20 µM |
| CN(C)c1ccc(C(Nc2nc3c(-c4ccc([N+](=O)[O-])cc4)nn(-c4ccccc4)c3s2)P(=O)(Oc2ccccc2)Oc2ccccc2)cc1 (stereo not shown) | Vero cells | SRB | 0.1 µM, 10% fetal bovine serum | – | viability | 98.5% |
| O=C1CCP(=S)(c2ccccc2)CC1 | SW480 | trypan blue | IC50, 72 h | – | viability | 90% |
